Experimental data from different studies.
UCHL1: Ubiquitin carboxyl-terminal hydrolase isozyme L1 (UCHL1, Homo sapiens, UniProt P09936)
Chain of UniProt P09936 (whole entry, looked up): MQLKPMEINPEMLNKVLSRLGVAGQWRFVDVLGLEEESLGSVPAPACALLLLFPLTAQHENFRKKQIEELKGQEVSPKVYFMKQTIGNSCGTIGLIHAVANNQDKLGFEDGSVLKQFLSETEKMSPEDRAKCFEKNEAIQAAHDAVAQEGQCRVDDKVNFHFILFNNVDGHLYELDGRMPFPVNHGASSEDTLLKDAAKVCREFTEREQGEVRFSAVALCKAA

Compound | tested on | test | system | setting | endpoint | value
CC(=O)C1=C(C)N(c2cccc(C(F)(F)F)c2)C(=O)N[C@@H]1c1ccc(C#N)nc1 | trypsin |  |  |  | IC50 | > 30 µM
COc1ccc(C/C=C/c2cc(OC)cc(OC)c2)cc1 | STAT3 | reporter gene, inhibitor | NCI-H460 |  | IC50 | 3.79 µg/mL
CCN1CCC(CCNCc2cc3cc(Br)ccc3nc2SCc2ccccc2)CC1 | Pseudomonas aeruginosa electron transport chain | ACMA quenching | inverted membrane vesicles | together with: NADH | IC50 | 3.2 µg/mL
COc1ccc(C/C=C(/CO)c2ccc(OC)cc2)cc1 | STAT3 | reporter gene, inhibitor | NCI-H460 |  | IC50 | 5.03 µg/mL
CC(Cl)C(=O)Nc1ccc(C2CC(=O)NC(=O)N2)cc1 (stereo not shown) | UCHL1 | covalent, intact protein LC-MS |  | 12.5 µM | labelling | 9.1%
OC/C(=C/Cc1ccc(O)cc1)c1ccc(O)cc1 | STAT3 | reporter gene, inhibitor | NCI-H460 |  | IC50 | 4.93 µg/mL
COCCOC(=O)C1=C(C)NC(C)=C(C(=O)OC/C=C/c2ccccc2)C1c1cccc([N+](=O)[O-])c1 (stereo not shown) | Toxoplasma gondii | parasite growth | HFF, bradyzoite, glutamine-induced |  | EC50 | 6.53 µM
Cc1cnn(Cc2ccc(Cn3cc(C(=O)NCc4ccc5c(N)nccc5c4)cn3)cc2)c1 | trypsin |  |  |  | IC50 | > 40 µM
CCN(Cc1c(F)cccc1Cl)c1c([N+](=O)[O-])cc(C(F)(F)F)cc1[N+](=O)[O-] | anti-BL mouse monoclonal antibody | binding, indirect competitive ELISA |  | pH 7.4, 1% methanol | IC50 | > 1 µg/mL
Oc1ncnc2[nH]ncc12 | Toxoplasma gondii | parasite growth | HFF, bradyzoite, glutamine-induced |  | EC50 | 30 µM
COCc1nn(Cc2ccc(Cn3ccccc3=O)cc2)cc1C(=O)NCc1c(Cl)ccc(OC)c1F | trypsin |  |  |  | IC50 | > 40 µM
C(/Cc1ccc(OCc2ccccc2)cc1)=C(\COCc1ccccc1)c1ccc(OCc2ccccc2)cc1 | STAT3 | reporter gene, inhibitor | NCI-H460 |  | IC50 | 4.25 µg/mL
COc1cccc(CNC(=O)c2cn(Cc3ccc(Cn4ccccc4=O)cc3)nc2C2CC2)c1F | trypsin |  |  |  | IC50 | > 40 µM
COc1ccc(CCNc2oc(COc3ccc(C)cc3)nc2C#N)cc1 | UCHL1 | covalent, intact protein LC-MS |  | 12.5 µM | labelling | 8.49%
CCc1nc(N)nc(N)c1-c1ccc(Cl)cc1 | β-hematin formation | detergent-based |  |  | IC50 | inactive
NCc1ccc(CNC(=O)c2cnn(Cc3ccc(Cn4ccccc4=O)cc3)c2)cc1 | trypsin |  |  |  | IC50 | 27 µM
